Experimental data gathered from unrelated publications.
Each numbered part is a random draw from the data of one study; scales do not carry over between parts. Substitutions count along the parent as printed.

Set 1
Target: RNA binding protein fox-1 homolog 2, RRM domain, GST-SBP tag (RBFOX2, Homo sapiens, UniProt O43251-10, residues 100-194)
Technique: RNA Bind-n-Seq
Form: RNA
Sample: in vitro
Concentration: 365 nM
Notes: natural RNA segment, single round, ends assumed
Baseline: no-protein control
Reading: higher = stronger binding
All sequences stand within: GGGAGUUCUACAGUCCGACGAUC … UGGAAUUCUCGGGUGCCAA
Target sequence (chain): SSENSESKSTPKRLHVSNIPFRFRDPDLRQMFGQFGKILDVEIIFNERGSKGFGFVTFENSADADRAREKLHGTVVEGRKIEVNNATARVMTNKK
Oligonucleotide | RBNS enrichment (R)
UUUGUGUAAAUUUGUAUCCACACAAAUUCAGUCUCUGAAUACACAGUAUUCAGAGUCUCUGAUACACAGUAAUUGUGACAAUAGGGCUAAAUGUUUAAAGAAAUCAAAAG | 0.323
AACUGGGAGAGUCAAAAGUGAGCAGAAGCUCUCCAUUUCUACUUCUGUCACAAACCACAUUAAAUUGUAAAUAAGGCCCUUCUCCACUUGACUUCAGGCAGCAGAUUGUC | 0.369
GAUAGUGUGGGUCUCCUGAAGGCCCUUGGCUGUUUGCAAAUGGACCUAAUGAUAUGAAGCCUUCUUUGUCUCUGACCUUUUUUCUCUGAGACCAGGAAUCUAGAUAAUAG | 0.484
CCUUUUAGCUAAAGACAUUCAUUACUAUAGCACUUCCCAGGCAUUGAAGAGGCAGAGUGAUUUAGAGAACGAAAUCAGAACCUGGGAACACCAUGACUACUUCAUUUCUA | 0.468
UUCUCUGAAAGCUUAGCCUCAAGGGAACACCUAAAGAGCUCCCCUACAUAGACUCCUGCCUCCAGGUGCAGGAACACACCUUCCUAAAGUGCUGUGGGAGGCCAAACUGG | 0.342
AAGUAACCUAACAGAGCUUUGAUGUUAUAGCUGCAUUAAAGAAGGUGAUUGUCAAUAUUACAGAAAACAAAAAUGGAUUGCCCCUCCAAGGACCAAACAGAUUCAAGGAG | 0.434
GCCUGCGCUGACCUCCGAGUGCCCUUCCCGAGGGCAGUGCCAGGUGCAUGCUGCUUCCGACACUGGCGCUGAGAUCCCUCCCCGAGGGGCUCUGUCUCUGCCUUGACCUC | 11.6
UUGAACAGGUGCCUUGGGCAUGAUGUAUAGAUGCAGUCAUAUAUACCUUGCUGGGGUGGGGUGCCACCUCCAGUGGCCAGCUCCAGAUCCAAGGAGCAGCCCCCUGGGGA | 0.285
GUGAGAGGGGAUUUGAAUCUGUUUGCAAAUUGUCCAACCCACCAGGUCAACGUGAGGGGCUUACAUUCUGGGUUUGAUAAGAAAAGUGUUCAUUCAUGACUGCUAUGUCC | 1.37
GGUUCAAAACUUACUGCAUUUUAAUUUUUCACUUAACUUAUAACAUGUCUUGCUUCUCCAGUGUGUGGAAGGCACCGGGCAGUUUGCAGAGAUAAGCAAAACACAGUUCC | 3.69
ACGGAUGUUGUCAGGAAUCAUGAUCUGACUUUAAUUGUGUGUCUUCUAUUAUAACUGCAUAGUAAUAGGGCCCUUAGCUCUCCCGUAGUCAGCGCAGUUUAGCAGUUAAA | 0.572
UCCAUGCACAGGCCCAAGAGUCACCUCCAAUGAAAUAAAUGUAAUACUGAAGUAUGCCAUGAUGUUUGUUGUUUUCUUUCAUCGUAAGCCUGUAAGCAGGAAAAAUACGU | 0.351

Set 2
Target: Ras GTPase-activating protein-binding protein 1, full length (G3BP1, Homo sapiens, UniProt Q13283)
Sequence of UniProt Q13283 (whole entry, looked up): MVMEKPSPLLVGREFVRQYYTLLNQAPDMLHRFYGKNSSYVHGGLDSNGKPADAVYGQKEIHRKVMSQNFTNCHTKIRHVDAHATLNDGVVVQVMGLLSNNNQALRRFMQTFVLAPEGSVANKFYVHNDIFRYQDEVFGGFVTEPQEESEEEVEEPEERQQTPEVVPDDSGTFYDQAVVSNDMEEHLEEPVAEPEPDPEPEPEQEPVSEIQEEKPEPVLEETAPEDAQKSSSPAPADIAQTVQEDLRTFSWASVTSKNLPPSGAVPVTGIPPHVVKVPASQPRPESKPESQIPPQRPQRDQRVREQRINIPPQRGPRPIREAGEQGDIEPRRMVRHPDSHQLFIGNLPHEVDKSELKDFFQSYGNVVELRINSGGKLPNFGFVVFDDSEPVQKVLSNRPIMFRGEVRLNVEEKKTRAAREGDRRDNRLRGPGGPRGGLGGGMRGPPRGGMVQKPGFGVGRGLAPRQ
Technique: RNA Bind-n-Seq
Form: RNA
Sample: in vitro
Concentration: 200 nM
Notes: whole 134-nt RNA, ends assumed
Together with: 150 mM LiCl
Baseline: input library
Reading: higher = stronger binding
Each molecule: 7-deaza-guanosine replaces G
All sequences stand within: GGGAGUUCUACAGUCCGACGAUC … UGGAAUUCUCGGGUGUCAAGG
Oligonucleotide | log2 enrichment
CAAGUCCUGUGCUACACAUCGUAUGUACCGAAUCGGGGAAAGGGGAAAGGAAAGGGAAAGUAUUAUGUUACGCCGUUCGGAUCUGCACUU | -0.478
CACAGACAACACGCACCCACACAGACACAGAGGGAAGGGGUUGGGAUGGGGACAGGGUGCACAGCAGGGCGGGGUCGGACCCCAGCCCCU | 1.06
AGUCCUGUGCUACACAUCGUAUGUACCGAAUCGGGGUUUUGGGUUUUGGGUUUUGGGGAAAGUAUUAUGUUACGCCGUUCGGAUCUGCAC | 0.523
GCAGGAAGUAAUAACAAAUGGAAAUGCUUCGGAUAGUGGCAGGGGUGGGGGUUGCUAAGGAAAGGGUGGGAUGGGAGUGGGUAAAGAGUU | -0.0725
GAGAGCGAGGUGGCUUCAAUAAGCCUGGUGGUAAGUUUUUGAGUAUUACCAUAGAUAGUGUUUAAAAAAAAAUGCAGUCAGUUUUUAGAA | -0.0442
CGCAGAAGUCGCGUGUCUAGGUGAGUCGCGGUGGGUCCUCGCUUGCAGUUCAGCGACCACGGUGGGUACCGUUUUUGCGAGGAUUGUUUG | -0.636
GUCCUGUGCUACACAUCGUAUGUACCGAAUCGGAAAAAAGGAAAAAAGGGAAAAAAGGAAAGUAUUAUGUUACGCCGUUCGGAUCUGCAC | -0.781
UGGCCCUGGUGGCAUGCGGGGAGGAAGAGGUGGCCUCAUGGAUCGUGGUGGUCCCGGUGGAAUGUUCAGAGGUGUCCGUGGUGGAGACAG | -0.178
CAAGUCCUGUGCUACACAUCGUAUGUACCGAAUCGGGGCCCGGGCCCGGCCCGGGGAAAGUAUUAUGUUACGCCGUUCGGAUCUGCACUU | -0.655
AAGUCCUGUGCUACACAUCGUAUGUACCGAAUCAAAUUUUUAAAUUUAAAUUUAAAAAAGUAUUAUGUUACGCCGUUCGGAUCUGCACUU | -2.74
AGUCACUUUUUAAUUUUAUUUAUUAUUUCUCCUCUUAGACCGCAGGAUGGAAACAAGCCCACUGAGACUAGUCAACCUCAAUCUAGCACA | 1.55

Set 3
Target: ABI1, truncated, D143A, DHFR fusion (Arabidopsis thaliana)
Technique: DHFR PCA, deep sequencing
Sample: yeast
Notes: methotrexate growth selection, single substitutions
Together with: (+)-ABA 0.0091 µM
Baseline: wild-type fitted maximum
Reading: higher = stronger binding
Starting sequence: PYL1, truncated, DHFR fusion (Arabidopsis thaliana); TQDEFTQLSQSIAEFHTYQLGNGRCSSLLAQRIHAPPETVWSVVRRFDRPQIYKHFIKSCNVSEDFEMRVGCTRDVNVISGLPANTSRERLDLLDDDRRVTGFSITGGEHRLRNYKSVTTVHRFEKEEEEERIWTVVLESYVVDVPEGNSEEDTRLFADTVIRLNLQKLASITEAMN
Variant | relative binding score [%]
R155M | 6.4
E125T | 31.5
S27V | 1.26
N77I | 49.2
H110G | 33
H34Q | 42.9
N22Y | 16
T135K | -11.7
T6D | 33.7
G23P | 1.24
Q19A | 30.9
N61E | 53
K116W | 0.461
I133H | 31.9

Set 4
Target: Histone acetyltransferase KAT6A, both winged helices, GST fusion (KAT6A, Homo sapiens, UniProt Q92794, residues 1-181)
Technique: protein binding microarray
Form: double-stranded DNA, one strand shown
Sample: in vitro
Concentration: not given
Notes: 8-mer, flanks averaged, mean of 2 arrays, mostly near background
Baseline: not given
Reading: higher = stronger binding
Residues (chain): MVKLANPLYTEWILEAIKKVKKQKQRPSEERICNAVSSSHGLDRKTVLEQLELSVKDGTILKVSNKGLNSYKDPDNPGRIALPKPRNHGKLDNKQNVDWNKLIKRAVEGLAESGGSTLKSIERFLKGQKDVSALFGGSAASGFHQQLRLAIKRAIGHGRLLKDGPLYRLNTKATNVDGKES
Oligonucleotide | E-score
CGCCGGCG | 0.43
GCTTGTTA | 0.0475
ACGCGGGA | 0.254
ACACGCCC | 0.0864
CTGTCCCA | -0.0997
ACTCGAGT | -0.0747
CTAGTATA | 0.0402
ATGGAGGG | -0.257
CACCGACA | 0.0186
AGCGTGGC | -0.00822
GAGGACTA | -0.068
TATATATA | 0.0296
AGTACAAA | -0.111
GTTCTGGA | -0.0229
GCGTCAAA | 0.101
ACTATGTA | -0.144
CGCATCCG | 0.307
GGCGAAAC | 0.0587
ATGAGTAA | -0.0876
GAACGGAC | 0.0714
AGATGACG | -0.0335
CGCTGATA | 0.124
CATACTCC | -0.0772
ACACAGGG | 0.0123
ACAATAGG | -0.00386

Set 5
Target: Sal-like protein 4, full length isoform B (SALL4, Homo sapiens, UniProt Q9UJQ4-2, residues 1-616)
Technique: universal PBM
Form: double-stranded DNA, one strand shown
Sample: in vitro
Concentration: not given
Notes: 8-mer, flanks averaged, mean of replicates
Reading: higher = stronger binding
Oligonucleotide | E-score
ATGGGCGA | -0.289
GTTTCCCA | -0.0407
AAGGACCG | -0.0751
ACGCTTTG | -0.0414
ATATAGCG | 0.229
GCCAAAGA | -0.0788
AGGATTTC | -0.0312
AACTGGTG | -0.229
GTTTCGAA | 0.0365
CGGCGACA | -0.264
CACATCAA | 0.00117
CGCCAGGC | -0.334
GGGGGAAC | -0.357
AGGCGACA | -0.274
GAACCCAC | -0.236
ACTTACGC | 0.1
CCCGACTA | -0.198
ACTCTGCG | -0.148
CGTTGGTC | -0.18
TTCAGGAA | -0.0468

Repeated from above (set 2):
Oligonucleotide | log2 enrichment
CAAGUCCUGUGCUACACAUCGUAUGUACCGAAUCGGGGAAAGGGGAAAGGAAAGGGAAAGUAUUAUGUUACGCCGUUCGGAUCUGCACUU | -0.478
CACAGACAACACGCACCCACACAGACACAGAGGGAAGGGGUUGGGAUGGGGACAGGGUGCACAGCAGGGCGGGGUCGGACCCCAGCCCCU | 1.06
AGUCCUGUGCUACACAUCGUAUGUACCGAAUCGGGGUUUUGGGUUUUGGGUUUUGGGGAAAGUAUUAUGUUACGCCGUUCGGAUCUGCAC | 0.523
GCAGGAAGUAAUAACAAAUGGAAAUGCUUCGGAUAGUGGCAGGGGUGGGGGUUGCUAAGGAAAGGGUGGGAUGGGAGUGGGUAAAGAGUU | -0.0725
GAGAGCGAGGUGGCUUCAAUAAGCCUGGUGGUAAGUUUUUGAGUAUUACCAUAGAUAGUGUUUAAAAAAAAAUGCAGUCAGUUUUUAGAA | -0.0442
CGCAGAAGUCGCGUGUCUAGGUGAGUCGCGGUGGGUCCUCGCUUGCAGUUCAGCGACCACGGUGGGUACCGUUUUUGCGAGGAUUGUUUG | -0.636
GUCCUGUGCUACACAUCGUAUGUACCGAAUCGGAAAAAAGGAAAAAAGGGAAAAAAGGAAAGUAUUAUGUUACGCCGUUCGGAUCUGCAC | -0.781
UGGCCCUGGUGGCAUGCGGGGAGGAAGAGGUGGCCUCAUGGAUCGUGGUGGUCCCGGUGGAAUGUUCAGAGGUGUCCGUGGUGGAGACAG | -0.178
CAAGUCCUGUGCUACACAUCGUAUGUACCGAAUCGGGGCCCGGGCCCGGCCCGGGGAAAGUAUUAUGUUACGCCGUUCGGAUCUGCACUU | -0.655
AAGUCCUGUGCUACACAUCGUAUGUACCGAAUCAAAUUUUUAAAUUUAAAUUUAAAAAAGUAUUAUGUUACGCCGUUCGGAUCUGCACUU | -2.74
AGUCACUUUUUAAUUUUAUUUAUUAUUUCUCCUCUUAGACCGCAGGAUGGAAACAAGCCCACUGAGACUAGUCAACCUCAAUCUAGCACA | 1.55
